Assay results gathered from unrelated publications.
Each line is one published result; not all experiments were run side by side. ± marks the error that the study gave.
Cell line: K562

SMILES	test	system	setting	scale	endpoint	value
COc1ccc(OC)c(-c2nc3ccc(-c4nc5ccc(N6CCN(C)CC6)cc5[nH]4)cc3[nH]2)c1	SRB	–	10 µM, 48 h	–	growth percent	96.4%
Cc1n[nH]c(C)c1CSc1ccccc1	cytotoxicity	–	–	reference: IC50 HEK293 over IC50 K562	selectivity index	1.3
CN1CCN(c2ccc3[nH]c(-c4ccc5[nH]c(-c6ccc(C(F)(F)F)cc6)nc5c4)nc3c2)CC1	SRB	–	10 µM, 48 h	–	growth percent	-34.2%
C#C[C@@]1(O)[C@@H](CO)O[C@@H](n2cc(Cl)c3c(N)ncnc32)[C@@H]1O	SRB	–	NCI-60 screen	–	TGI	> 100 µM
O=c1ccn(Cc2cn(-c3cc4ccccc4oc3=O)nn2)c(=O)[nH]1	NCI60 single-dose screen	–	10 µM	–	growth percentage	102%
C#C[C@@]1(O)[C@@H](CO)O[C@@H](n2cc(I)c3c(N)ncnc32)[C@@H]1O	SRB	–	NCI-60 screen	–	TGI	> 100 µM
CCCN1CCN(c2ccc3[nH]c(-c4ccc5[nH]c(-c6ccc(OCC)c(OCC)c6)nc5c4)nc3c2)CC1	SRB	–	10 µM, 48 h	–	growth percent	-5.53%
CSc1nc(-c2ccc(Cl)cc2)c2c(NC(=O)c3ccccc3)nnc-2[nH]1	SRB	–	10 µM, NCI60 single-dose screen	reference: untreated	cell growth	87.3%
CCN(CC)c1ccc(C=NNC(=O)CSc2nc3ccccc3c(=O)n2Cc2ccc(S(N)(=O)=O)cc2)c(O)c1	cell growth	–	–	–	TGI	> 100 µM
CC1(C)CCC(CN2CCN(c3ccc(C(=O)NS(=O)(=O)c4ccc(NCC5CCOCC5)c([N+](=O)[O-])c4)c(Oc4cnc5[nH]ccc5c4)c3)CC2)=C(c2ccc(Cl)cc2)C1	annexin V/PI flow cytometry, refers to: annexin V-/PI-	–	3.2 µM, 24 h	–	viable cells	95.7%
O=C(c1ccc(/C=C/c2n[nH]c3ccccc23)cc1)N1CCNCC1	competition binding enrichment	live cells	2 µM	proteins significantly competed	number of competed kinases	~30
S=C([S][Au-][P+](CCCCCC[P+]([Au-][S]C(=S)n1cccn1)(c1ccccc1)c1ccccc1)(c1ccccc1)c1ccccc1)n1cccn1	cell growth, NCI-60 screen	–	leukemia	–	log10 TGI	-4.82
O=C(Nc1nnc2n3c(=S)[nH][nH]c3nc(-c3ccc(Cl)cc3)c1-2)c1ccccc1	SRB	–	10 µM, NCI60 single-dose screen	reference: untreated	cell growth	87.4%
O=C1NC(c2ccccc2)(c2ccccc2)C(=O)N1Cc1cn(-c2c3ccccc3nc3ccccc23)nn1	NCI60 single-dose screen	–	10 µM	–	growth percentage	39.2%
O=C(Nc1nnc2[nH]c(=S)[nH]c(-c3ccc(Cl)cc3)c1-2)c1ccccc1	SRB	–	10 µM, NCI60 single-dose screen	reference: untreated	cell growth	97.6%
C=CC(=O)N1CCC[C@@H](n2nc(-c3ccc(Oc4ccccc4)cc3)c3c(N)ncnc32)C1	cell viability, MTT	–	24 h	–	IC50	63 ± 8.38 µM
C[C@H]1[C@@H](O)O[C@@H]2O[C@@]3(C)CC[C@H]4[C@H](C)CC[C@@H]1[C@@]24OO3	annexin V/PI flow cytometry, refers to: annexin V-/PI-	–	3.2 µM, 24 h	–	viable cells	94.7%
CCCC(CCC)C(=O)OCc1cn(-c2c3ccccc3nc3ccccc23)nn1	NCI60 single-dose screen	–	10 µM	–	growth percentage	80.2%
CCCCN1CCN(c2ccc3[nH]c(-c4ccc5[nH]c(-c6cc(OC)c(OC)c(OC)c6)nc5c4)nc3c2)CC1	SRB	–	10 µM, 48 h	–	growth percent	30.8%
NNc1nc(-c2ccc(Cl)cc2)c2c(NC(=O)c3ccccc3)nnc-2[nH]1	SRB	–	10 µM, NCI60 single-dose screen	reference: untreated	cell growth	98.8%
CCCCN1CCN(c2ccc3[nH]c(-c4ccc5[nH]c(-c6ccc(C(F)(F)F)cc6)nc5c4)nc3c2)CC1	SRB	–	10 µM, 48 h	–	growth percent	-65.8%
Cc1n[nH]c2nc(-c3ccc(Cl)cc3)c3c(NC(=O)c4ccccc4)nnc-3n12	SRB	–	10 µM, NCI60 single-dose screen	reference: untreated	cell growth	90.8%
CCCN1CCN(c2ccc3[nH]c(-c4ccc5[nH]c(-c6cc(OC)c(OC)c(OC)c6)nc5c4)nc3c2)CC1	SRB	–	10 µM, 48 h	–	growth percent	59.5%
Cn1cncc1C1=CN(c2ncnc3[nH]cnc23)CCS1	–	–	leukemia	–	GI50	29.5 µM
O=C(Nc1nnc2n3c(Cc4ccccc4)n[nH]c3nc(-c3ccc(Cl)cc3)c1-2)c1ccccc1	SRB	–	10 µM, NCI60 single-dose screen	reference: untreated	cell growth	100%

Some of these lines once more:
SMILES	test	system	setting	scale	endpoint	value
CCCCN1CCN(c2ccc3[nH]c(-c4ccc5[nH]c(-c6ccc(C(F)(F)F)cc6)nc5c4)nc3c2)CC1	SRB	–	10 µM, 48 h	–	growth percent	-65.8%
O=C(Nc1nnc2[nH]c(=S)[nH]c(-c3ccc(Cl)cc3)c1-2)c1ccccc1	SRB	–	10 µM, NCI60 single-dose screen	reference: untreated	cell growth	97.6%
